Measured values from different studies.
Protocols differ between the studies behind these lines. “And” joins repeats or separate records; there may be more than shown. ± marks the error that the study gave.
B1: LLGL2 13-978 (Homo sapiens, UniProt Q6P1M3); Hilyte488 N-terminal label; chain RERLKRDLFQFNKTVEHGFPHQPSALGYSPSLRILAIGTRSGAIKLYGAPGVEFMGLHQENNAVTQIHLLPGQCQLVTLLDDNSLHLWSLKVKGGASELQEDESFTLRGPPGAAPSATQITVVLPHSSCELLYLGTESGNVFVVQLPAFRALEDRTISSDAVLQRLPEEARHRRVFEMVEALQEHPRDPNQILIGYSRGLVVIWDLQGSRVLYHFLSSQQLENIWWQRDGRLLVSCHSDGSYCQWPVSSEAQQPEPLRSLVPYGPFPCKAITRILWLTTRQGLPFTIFQGGMPRASYGDRHCISVIHDGQQTAFDFTSRVIGFTVLTEADPAATFDDPYALVVLAEEELVVIDLQTAGWPPVQLPYLASLHCSAITCSHHVSNIPLKLWERIIAAGSRQNAHFSTMEWPIDGGTSLTPAPPQRDLLLTGHEDGTVRFWDASGVCLRLLYKLSTVRVFLTDTDPNENFSAQGEDEWPPLRKVGSFDPYSDDPRLGIQKIFLCKYSGYLAVAGTAGQVLVLELNDEAAEQAVEQVEADLLQDQEGYRWKGHERLAARSGPVRFEPGFQPFVLVQCQPPAVVTSLALHSEWRLVAFGTSHGFGLFDHQQRRQVFVKCTLHPSDQLALEGPLSRVKSLKKSLRQSFRRMRRSRVSSRKRHPAGPPGEAQEGSAKAERPGLQNMELAPVQRKIEARSAEDSFTGFVRTLYFADTYLKDSSRHCPSLWAGTNGGTIYAFSLRVPPAERRMDEPVRAEQAKEIQLMHRAPVVGILVLDGHSVPLPEPLEVAHDLSKSPDMQGSHQLLVVSEEQFKVFTLPKVSAKLKLKLTALEGSRVRRVSVAHFGSRRAEDYGEHHLAVLTNLGDIQVVSLPLLKPQVRYSCIRREDVSGIASCVFTKYGQGFYLISPSEFERFSLSTKWLVEPRCLVDSAETKNHRPGNGAGPKKAPSRARNSGTQSDGEEKQPGLVMER
B2: Cacna1c 1647-1777 (Mus musculus, UniProt Q01815); sequence looked up; chain NALSLQAGLRTLHDIGPEIRRAISGDLTAEEELDKAMKEAVSAASEDDIFRRAGGLFGNHVTYYQSDSRGNFPQTFATQRPLHINKTGNNQADTESPSHEKLVDSTFTPSSYSSTGSNANINNANNTALGR
B3: CFH domains 1108-1231 L1189F (Homo sapiens, UniProt P08603); sequence looked up; chain KCGPPPPIDNGDITSFPLSVYAPASSVEYQCQNLYQLEGNKRITCRNGQWSEPPKCLHPCVISREIMENYNIALRWTAKQKFYSRTGESVEFVCKRGYRLSSRSHTLRTTCWDGKLEYPTCAKR
B4: PUX4 (Arabidopsis thaliana, UniProt Q8RWU7); chain MSSKDKKPSKPSSSRGGIRTLSDLNRRSGPDSDSDSDGPQEYYTGGEKSGMLVQDPSKKDDVDEIFNQARQLGAVEGPLEPPPSSRSFTGTGRLLSGENVPTGNQQPEPVVHNIVFWSNGFTIDDGPLRKLDDPENASFLESIRKSECPKELEPADRRAPVHVNLMRKEEKCPERQKRRVSFQGVGRTLGGSNEGSGSSSPVAPDSAPIPIQTEPAPSQSLVIDETVPTTSIQLRLADGTRLVAKFNHHHTVNDIRGFIDSSRPGASLNYQLQTMGFPPKPLTDLTQTIEEAGLANSVVLQKF
Chain of UniProt Q64663 (whole entry, unmodified, looked up): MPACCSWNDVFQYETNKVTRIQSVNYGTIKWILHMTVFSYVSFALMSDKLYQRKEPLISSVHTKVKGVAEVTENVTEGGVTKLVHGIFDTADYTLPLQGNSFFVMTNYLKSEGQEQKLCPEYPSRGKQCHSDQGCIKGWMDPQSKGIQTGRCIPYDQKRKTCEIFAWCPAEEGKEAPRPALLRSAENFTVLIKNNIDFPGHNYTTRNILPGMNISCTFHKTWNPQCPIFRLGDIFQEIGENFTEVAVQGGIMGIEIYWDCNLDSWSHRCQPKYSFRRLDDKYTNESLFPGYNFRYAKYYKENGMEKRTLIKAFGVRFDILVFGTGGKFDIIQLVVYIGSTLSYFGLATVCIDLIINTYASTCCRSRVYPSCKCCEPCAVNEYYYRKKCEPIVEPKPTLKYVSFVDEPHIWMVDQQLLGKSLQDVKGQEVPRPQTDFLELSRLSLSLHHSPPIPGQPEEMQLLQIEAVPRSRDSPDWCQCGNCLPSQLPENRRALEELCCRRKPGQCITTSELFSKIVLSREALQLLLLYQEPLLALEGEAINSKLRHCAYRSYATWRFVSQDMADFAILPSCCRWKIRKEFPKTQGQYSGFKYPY
Chain of UniProt P26039 (whole entry, looked up): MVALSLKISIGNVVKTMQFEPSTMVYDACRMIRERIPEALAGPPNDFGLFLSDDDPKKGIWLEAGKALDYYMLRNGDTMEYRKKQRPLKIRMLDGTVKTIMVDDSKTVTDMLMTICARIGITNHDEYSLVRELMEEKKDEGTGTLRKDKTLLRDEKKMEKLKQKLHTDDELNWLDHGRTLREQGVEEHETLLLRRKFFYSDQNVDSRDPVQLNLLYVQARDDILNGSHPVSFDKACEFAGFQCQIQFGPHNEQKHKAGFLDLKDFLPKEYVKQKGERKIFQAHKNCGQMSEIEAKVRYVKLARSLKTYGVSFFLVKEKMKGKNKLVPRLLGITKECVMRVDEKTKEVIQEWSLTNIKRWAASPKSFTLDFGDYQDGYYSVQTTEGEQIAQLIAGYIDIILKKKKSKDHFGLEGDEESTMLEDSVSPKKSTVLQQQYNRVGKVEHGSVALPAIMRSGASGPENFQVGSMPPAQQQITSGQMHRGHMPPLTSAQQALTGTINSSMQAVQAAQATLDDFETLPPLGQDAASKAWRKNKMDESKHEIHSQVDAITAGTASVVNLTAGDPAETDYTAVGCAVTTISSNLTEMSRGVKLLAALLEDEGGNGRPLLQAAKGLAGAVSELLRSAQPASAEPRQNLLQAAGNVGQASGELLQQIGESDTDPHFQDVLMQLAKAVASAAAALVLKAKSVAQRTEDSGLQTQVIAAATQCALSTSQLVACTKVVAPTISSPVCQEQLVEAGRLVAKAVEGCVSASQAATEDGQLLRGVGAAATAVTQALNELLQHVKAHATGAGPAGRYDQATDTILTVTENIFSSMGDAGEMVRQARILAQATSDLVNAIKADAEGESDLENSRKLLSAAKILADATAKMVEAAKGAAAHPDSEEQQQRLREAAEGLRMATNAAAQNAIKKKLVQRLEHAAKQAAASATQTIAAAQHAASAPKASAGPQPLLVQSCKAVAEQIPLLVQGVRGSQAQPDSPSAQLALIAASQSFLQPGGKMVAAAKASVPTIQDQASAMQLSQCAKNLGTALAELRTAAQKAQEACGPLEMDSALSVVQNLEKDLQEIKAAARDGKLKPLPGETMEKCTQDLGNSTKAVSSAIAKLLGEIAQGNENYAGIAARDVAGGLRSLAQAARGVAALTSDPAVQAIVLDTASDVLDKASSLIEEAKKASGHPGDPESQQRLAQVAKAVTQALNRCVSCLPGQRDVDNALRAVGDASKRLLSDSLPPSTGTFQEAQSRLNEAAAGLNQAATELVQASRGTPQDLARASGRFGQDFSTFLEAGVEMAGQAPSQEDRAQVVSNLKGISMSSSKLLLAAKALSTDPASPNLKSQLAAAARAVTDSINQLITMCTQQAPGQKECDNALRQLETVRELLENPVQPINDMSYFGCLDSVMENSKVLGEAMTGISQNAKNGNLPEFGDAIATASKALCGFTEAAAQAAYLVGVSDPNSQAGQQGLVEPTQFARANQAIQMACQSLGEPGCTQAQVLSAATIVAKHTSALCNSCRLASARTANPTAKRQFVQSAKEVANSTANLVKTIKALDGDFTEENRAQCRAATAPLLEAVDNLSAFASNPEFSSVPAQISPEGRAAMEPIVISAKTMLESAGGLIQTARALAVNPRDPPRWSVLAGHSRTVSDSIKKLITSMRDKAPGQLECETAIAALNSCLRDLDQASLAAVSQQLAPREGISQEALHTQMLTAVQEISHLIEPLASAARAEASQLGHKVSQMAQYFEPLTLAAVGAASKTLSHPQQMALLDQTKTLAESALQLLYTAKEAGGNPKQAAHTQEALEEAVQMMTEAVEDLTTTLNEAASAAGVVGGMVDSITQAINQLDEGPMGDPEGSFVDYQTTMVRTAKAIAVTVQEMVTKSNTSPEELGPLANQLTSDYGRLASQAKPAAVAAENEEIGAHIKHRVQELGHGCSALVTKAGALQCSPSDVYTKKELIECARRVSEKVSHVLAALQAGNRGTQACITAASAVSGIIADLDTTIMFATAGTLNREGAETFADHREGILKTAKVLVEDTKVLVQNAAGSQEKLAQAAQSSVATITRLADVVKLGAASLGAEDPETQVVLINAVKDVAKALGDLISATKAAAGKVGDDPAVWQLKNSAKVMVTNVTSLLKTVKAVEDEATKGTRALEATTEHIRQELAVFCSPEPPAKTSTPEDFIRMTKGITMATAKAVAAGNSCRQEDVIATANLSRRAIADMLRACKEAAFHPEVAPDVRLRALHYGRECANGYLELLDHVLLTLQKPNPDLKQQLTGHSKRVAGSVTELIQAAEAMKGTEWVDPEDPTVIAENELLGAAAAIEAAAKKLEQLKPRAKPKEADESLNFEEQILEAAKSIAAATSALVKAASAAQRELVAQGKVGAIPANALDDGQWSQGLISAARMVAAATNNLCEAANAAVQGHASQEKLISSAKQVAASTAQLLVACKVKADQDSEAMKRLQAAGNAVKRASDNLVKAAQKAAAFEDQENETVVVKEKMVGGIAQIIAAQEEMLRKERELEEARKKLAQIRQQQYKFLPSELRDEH
Chain of UniProt P00921 (whole entry, looked up): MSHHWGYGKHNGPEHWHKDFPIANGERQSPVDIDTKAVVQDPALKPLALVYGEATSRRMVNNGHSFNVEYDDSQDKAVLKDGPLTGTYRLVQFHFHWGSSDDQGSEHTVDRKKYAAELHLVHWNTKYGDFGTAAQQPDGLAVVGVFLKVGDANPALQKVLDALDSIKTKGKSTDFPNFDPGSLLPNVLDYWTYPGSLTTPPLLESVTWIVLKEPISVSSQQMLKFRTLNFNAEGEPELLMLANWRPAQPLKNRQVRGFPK
Chain of UniProt P01024 (whole entry, looked up): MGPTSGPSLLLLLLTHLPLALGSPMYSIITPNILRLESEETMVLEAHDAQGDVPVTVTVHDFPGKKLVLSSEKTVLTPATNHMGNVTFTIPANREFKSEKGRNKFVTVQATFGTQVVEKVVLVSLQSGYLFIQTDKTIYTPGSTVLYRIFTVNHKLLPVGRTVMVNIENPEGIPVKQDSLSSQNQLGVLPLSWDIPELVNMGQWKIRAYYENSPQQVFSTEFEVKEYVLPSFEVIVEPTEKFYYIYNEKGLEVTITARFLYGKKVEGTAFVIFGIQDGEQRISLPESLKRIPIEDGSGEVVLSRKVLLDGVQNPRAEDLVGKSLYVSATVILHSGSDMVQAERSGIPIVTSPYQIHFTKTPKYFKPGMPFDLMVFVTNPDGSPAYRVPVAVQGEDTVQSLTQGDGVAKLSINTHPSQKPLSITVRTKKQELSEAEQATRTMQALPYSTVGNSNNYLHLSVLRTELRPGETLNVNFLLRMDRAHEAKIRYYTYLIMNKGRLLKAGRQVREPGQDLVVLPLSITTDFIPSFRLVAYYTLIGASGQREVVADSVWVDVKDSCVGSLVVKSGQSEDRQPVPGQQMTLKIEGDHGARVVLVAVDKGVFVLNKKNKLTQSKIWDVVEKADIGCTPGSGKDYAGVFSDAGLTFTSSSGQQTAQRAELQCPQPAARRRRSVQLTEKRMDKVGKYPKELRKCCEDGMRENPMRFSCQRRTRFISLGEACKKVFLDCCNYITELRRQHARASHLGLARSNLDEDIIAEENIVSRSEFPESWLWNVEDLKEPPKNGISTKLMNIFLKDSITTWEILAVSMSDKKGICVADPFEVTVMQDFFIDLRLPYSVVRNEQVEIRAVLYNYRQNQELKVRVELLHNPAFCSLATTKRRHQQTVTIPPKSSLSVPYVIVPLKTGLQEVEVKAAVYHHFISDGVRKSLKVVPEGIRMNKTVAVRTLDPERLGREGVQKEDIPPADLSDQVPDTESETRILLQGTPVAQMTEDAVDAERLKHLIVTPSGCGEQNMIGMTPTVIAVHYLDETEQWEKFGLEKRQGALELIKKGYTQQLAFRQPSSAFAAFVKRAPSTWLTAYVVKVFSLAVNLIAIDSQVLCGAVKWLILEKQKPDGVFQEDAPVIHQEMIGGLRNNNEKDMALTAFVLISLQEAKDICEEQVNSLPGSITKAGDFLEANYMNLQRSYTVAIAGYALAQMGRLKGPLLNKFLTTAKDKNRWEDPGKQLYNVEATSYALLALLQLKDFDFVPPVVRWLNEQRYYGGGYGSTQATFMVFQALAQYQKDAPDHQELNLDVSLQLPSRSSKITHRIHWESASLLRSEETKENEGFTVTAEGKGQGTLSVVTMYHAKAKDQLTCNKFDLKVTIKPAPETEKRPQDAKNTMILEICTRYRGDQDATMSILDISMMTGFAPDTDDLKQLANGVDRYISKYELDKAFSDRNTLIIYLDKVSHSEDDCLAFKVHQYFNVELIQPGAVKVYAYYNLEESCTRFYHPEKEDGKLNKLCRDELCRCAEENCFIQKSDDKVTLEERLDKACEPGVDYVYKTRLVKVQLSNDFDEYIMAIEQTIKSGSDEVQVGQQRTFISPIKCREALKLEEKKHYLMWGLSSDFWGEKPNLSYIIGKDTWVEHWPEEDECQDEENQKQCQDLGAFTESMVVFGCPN

Substance	target or system	assay	test system	conditions	how to read	quantity	result
B1 (LLGL2 13-978)	PRKCI/PARD6B 1-596, activation loop phosphorylated	fluorescence polarisation	–	together with: ADP	–	Kd	0.0074 µM
SCN2A fragment R1917A (Homo sapiens) (sequence not shown)	CALM1 (Homo sapiens, UniProt P0DP23)	fluorescence titration	–	together with: CaCl2	–	Kd	0.499 µM
histone H3 fragment, N-acetyl/K18 methacrylated/C-terminal amide	MLLT1 1-148 (Homo sapiens, UniProt Q03111)	fluorescence titration	–	–	–	Kd	13 µM
B2 (Cacna1c 1647-1777)	Jph2 1-440 S165I (Mus musculus, UniProt Q9ET78)	ITC	–	–	–	Kd	13.8 µM
colistin	Pseudomonas aeruginosa	–	clinical isolate RKI 597/16	–	–	MIC	1 µg/mL
B3 (CFH domains 1108-1231 L1189F)	C3 C3dg 955-1303 (Homo sapiens, UniProt P01024)	SPR	–	–	–	Kd	2.1 ± 0.6 µM
PMESGICTIV	human MAGI1-3/6 PDZ construct (MBP fusion)	surface plasmon resonance	peptide	concentration not given	higher = stronger binding	normalised SPR binding response	12.4 normalised RU
TPTPSARRTIGPRAPKSKTTY (Cdc12 residues 20-40 (Schizosaccharomyces pombe))	cdc15 19-312 E30K/E152K (Schizosaccharomyces pombe, UniProt Q09822)	ITC	peptide	–	–	Kd	5 µM
KLLITIHDRKEFAKFEEERARAKWDTAENPIYKEATSTFTNITYRGT (ITGB3 742-788 N743E/L746I (Homo sapiens, UniProt P05106); sequence looked up)	Tln1 309-405 (Mus musculus, UniProt P26039)	NMR titration	–	–	–	Kd	201 µM
ACYGPYYVLCSG (MP4.3; one disulfide ring)	CA2 (Bos taurus, UniProt P00921)	flow cytometry	peptide	–	–	Kd	0.369 µM
11-deoxycorticosterone	CYP11B2 (human)	substrate binding, stopped-flow global kinetic fitting	purified enzyme	3-state conformational selection model, together with: 10-fold excess adrenodoxin	–	rate constant k-2	15.7 ± 1.15 s⁻¹
FNIVGTTYPINC (GABRA3 peptide 368-379)	Gphn (Rattus norvegicus, UniProt Q03555)	competition titration, magnetic tweezers	peptide	–	–	Kd	39.4 µM
B4 (PUX4)	CDC48A 1-463 (Arabidopsis thaliana, UniProt P54609)	ITC	–	25 °C	–	Kd	3.6 ± 0.7 µM
Peginesatide	UT7/EPO	tyrosine phosphorylation, LC-MS/MS phosphoproteomics, trypsin, item: SEPT2 tyrosine 17	–	10 nM, 15 min, together with: 10 U/mL EPO	reference: vehicle	phosphorylation level	11 fold
SPTBN2 actin-binding domain K61E (sequence not shown)	ACTA1 F-actin (Oryctolagus cuniculus, UniProt P68135)	co-sedimentation	–	–	–	Kd	< 1 µM
BzATP	P2X purinoceptor 7 (P2rx7, Rattus norvegicus, UniProt Q64663, I214A/R125A)	ion current, agonist, two-electrode voltage clamp	Xenopus laevis oocytes	33 µM	reference: highest concentration response	normalized current	0.71 and 0.81 and 0.82

Some of these lines once more:
Substance	target or system	assay	test system	conditions	how to read	quantity	result
FNIVGTTYPINC (GABRA3 peptide 368-379)	Gphn (Rattus norvegicus, UniProt Q03555)	competition titration, magnetic tweezers	peptide	–	–	Kd	39.4 µM
B4 (PUX4)	CDC48A 1-463 (Arabidopsis thaliana, UniProt P54609)	ITC	–	25 °C	–	Kd	3.6 ± 0.7 µM
